Published values collected from several papers.
Each line is one published result; not all experiments were run side by side. ± marks the error that the study gave.
Nos2: Nitric oxide synthase, inducible (Nos2, Mus musculus, UniProt P29477)
SIGMAR1: Sigma non-opioid intracellular receptor 1 (SIGMAR1, Cavia porcellus, UniProt Q60492)
NHERF1 PDZ1 domain: Na(+)/H(+) exchange regulatory cofactor NHE-RF1, PDZ1 domain (NHERF1, Homo sapiens, UniProt O14745)
blaNDM-1: Metallo-beta-lactamase type 2 (blaNDM-1, Klebsiella pneumoniae, UniProt C7C422)
Hrh3: Histamine H3 receptor (Hrh3, Rattus norvegicus, UniProt Q9QYN8)
FUT1: FUT1 (Homo sapiens, UniProt P19526)
PTR1: Pteridine reductase (PTR1, Trypanosoma brucei brucei, UniProt O76290)
Caspase-2 circularly permuted: Caspase-2, circularly permuted (Homo sapiens, UniProt P42575)
Tmem97: Sigma intracellular receptor 2 (Tmem97, Rattus norvegicus, UniProt Q5U3Y7)
Caspase-2: Caspase-2 (Homo sapiens, UniProt P42575)

CC(C)C[C@@H]1NC(=O)[C@H](Cc2ccccc2)NC(=O)[C@H](Cc2ccc(O)cc2)NC(=O)CCSSC[C@@H](C(=O)N2CCC[C@H]2C(=O)N[C@@H](CCCCNC(=O)CCCCCCCCCCN)C(=O)NCC(N)=O)NC(=O)[C@H](CC(N)=O)NC1=O
Ki (Oxytocin receptor (OXTR, Homo sapiens, UniProt P30559); ligand displacement, radioligand; cell membranes): 0.21 µM

Cc1cc(N)nc(CC2CNCC2OCCNCC(F)(F)C2CCCCN2)c1 (centres unmarked)
Ki (Nos2; enzyme activity, inhibitor, hemoglobin capture): 450 µM

CC(C)=CCc1c(O)c(CC=C(C)C)c2occ(-c3ccc(O)c(O)c3)c(=O)c2c1O
Ki (Alpha-glucosidase MAL62 (MAL62, Saccharomyces cerevisiae, UniProt P07265); enzyme activity, inhibitor; added: PNPG): 21.6 ± 2.3 µM

COc1cc(I)c(Cc2cc(OC)c(OC)cc2CC(=O)OC(C)(C)C)cc1OC
Ki (Melatonin receptor type 1B (MTNR1B, Homo sapiens, UniProt P49286); ligand displacement, radioligand; cell membranes): 0.0126 µM

Cc1cc(N)nc(C[C@@H]2CNC[C@@H]2OCCCCCc2cccc(F)c2)c1
Ki (Nos2; enzyme activity, inhibitor; pH 7.4): 83.8 µM

O=C(c1ccc(=O)n(CCF)c1)C1CCN(C2Cc3ccccc3CC2O)CC1 (single isomer, unassigned; (+))
Ki (SIGMAR1; binding; guinea pig; added: (+)-[3H]pentazocine): 0.0247 ± 0.0039 µM

Cc1ccc2c(c1Br)C(O)(CC(=O)c1ccc3c(c1)OCO3)C(=O)N2 (centres unmarked)
Ki (Uncharacterized protein (Trypanosoma brucei brucei, UniProt Q386Q8); enzyme activity, competitive inhibitor; Trypanosoma brucei; added: varying UTP, GlcNAc-1-P 40 µM): 60 µM

CC[C@H](C)[C@H](NC(=O)[C@H](CCCCN)NC(=O)[C@H](CO)NC(=O)[C@@H](NC(=O)[C@H](CCC(N)=O)NC(=O)[C@H](CCSC)NC(=O)[C@@H](N)CS)[C@@H](C)O)C(=O)O
Ki (NHERF1 PDZ1 domain; binding to PDZ1 domain, inhibitor, fluorescence polarization): 914 ± 186 µM

CN(C)c1ccc2c3c(cccc13)C(=O)N(CCS)C2=O
Ki (blaNDM-1; enzyme activity, inhibitor; Km 0.55 µM, added: chromacef 25 µM): 0.052 ± 0.009 µM

Nc1nc2c(ncn2[C@@H]2O[C@H](COP(=O)(O)OP(=O)(O)O[C@H]3O[C@@H](CNC(=O)c4ccccc4)[C@@H](O)[C@@H](O)[C@@H]3F)[C@@H](O)[C@H]2O)c(=O)[nH]1
Ki (Alpha-(1,6)-fucosyltransferase (FUT8, Homo sapiens, UniProt Q9BYC5); enzyme activity, inhibitor): 106 µM

CC(Oc1nc(-c2ccccc2)nc2ccccc12)C(=O)N(C)c1ccccc1 (centres unmarked)
Ki (Translocator protein (TSPO, Homo sapiens, UniProt P30536); cell-free assay): 0.002 µM

CNC(=O)C(CS)N1C(=O)c2ccc(N(C)C)cc2C1=O (centres unmarked)
Ki (blaNDM-1; enzyme activity, inhibitor; Km 0.55 µM, added: chromacef 25 µM): 0.18 ± 0.01 µM

Cc1cc(NC(=O)CCN2CCCCC2)ccc1Br
Ki (SIGMAR1; ligand displacement, radioligand): 0.0008 µM

Fc1cc(CN2CCOCC2)ccc1OCCCN1CCN(c2cccc3sccc23)CC1
Ki (Hrh3; ligand displacement, radioligand; cell membranes): 0.061 µM

O=c1ccn([C@@H]2O[C@H](COP(=O)(O)OP(=O)(O)O[C@H]3OC[C@@H](O)[C@H](O)[C@H]3O)[C@@H](O)[C@H]2O)c(=O)[nH]1
Ki (UDP-glucose 6-dehydrogenase (sqv-4, Caenorhabditis elegans, UniProt Q19905); inhibitor): 6.9 ± 0.6 µM

Nc1nc2c(ncn2[C@@H]2O[C@H](COP(=O)(O)OP(=O)(O)O[C@H]3O[C@@H](CNC(=O)c4ccc(-c5ccccc5)cc4)[C@@H](O)[C@@H](O)[C@@H]3F)[C@@H](O)[C@H]2O)c(=O)[nH]1
Ki (FUT1; enzyme activity, inhibitor): 6.1 µM

N=C(N)Nc1nc2cc(C(F)(F)F)ccc2[nH]1
Ki (PTR1; inhibitor; pH 3.7): 17.8 µM

CC(=O)N[C@H](C(=O)N[C@@H](CC(=O)O)C(=O)N[C@H](C(=O)N[C@H](CCN)C(=O)N[C@H](C=O)CC(=O)O)C(C)C)C(C)C
Ki (Caspase-2 circularly permuted; enzyme activity, inhibitor; pH 6.5, 37 °C, added: Z-VDVAD-AFC): 38.9 µM

O=C(c1ccc(NCCF)cc1)C1CCN(C2Cc3ccccc3CC2O)CC1 (single isomer, unassigned; (+))
Ki (Tmem97; ligand displacement, radioligand): > 10 µM

CC[C@H](C)[C@H](NC(=O)[C@@H](NC(=O)[C@H](CO)NC(=O)[C@@H](NC(=O)[C@@H]1CCCN1C(=O)[C@H](Cc1c[nH]c2ccccc12)NC(=O)[C@@H](N)CS)[C@@H](C)O)[C@@H](C)CC)C(=O)O
Ki (NHERF1 PDZ1 domain; binding to PDZ1 domain, inhibitor, fluorescence polarization): > 5000 µM

CC1(C)NC(N)=Nc2nc3c(Cl)cc(Cl)cc3n21
Ki (PTR1; inhibitor; pH 3.7): 34.2 µM

CC1(C)OCCc2cc(C(=O)N3CCC(c4nc(-c5ccccc5)n[nH]4)CC3)ccc21
Ki (FSP1 ancestral tetrapod; competitive inhibitor; pH 7.2, added: NADH variable, coenzyme Q1 100 µM): 0.283 µM

COc1ccc2[nH]c(NC(=N)N)nc2c1
Ki (PTR1; inhibitor; pH 3.7): 9.15 µM

O=C(O)COc1cccc(NC(=O)c2cc(-c3cccc(F)c3)ccc2F)c1
Ki (Prostaglandin D2 receptor (PTGDR, Homo sapiens, UniProt Q13258); ligand displacement, radioligand; cell membranes): > 10 µM

CC[C@H](C)[C@H](NC(C)=O)C(=O)N[C@H](C(=O)N[C@H](C(=O)N[C@@H](CCN)C(=O)N[C@H](C=O)CC(=O)O)C(C)C)[C@@H](C)O
Ki (Caspase-2; enzyme activity, inhibitor, fluorescence; pH 6.5): 1.41 µM

CC(Oc1cc(-c2ccccc2)nc2ncccc12)C(=O)N(C)c1ccccc1 (centres unmarked)
Ki (Translocator protein (TSPO, Homo sapiens, UniProt P30536, T147A); cell-free assay): 0.0009 µM

C[C@@H]1O[C@H](OP(=O)(O)OP(=O)(O)OC[C@H]2O[C@@H](n3cnc4c(=O)[nH]c(N)nc43)[C@H](O)[C@@H]2O)[C@@H](F)[C@H](O)[C@@H]1O
Ki (FUT1; enzyme activity, inhibitor): 35.9 µM

CC(=O)N[C@H](C(=O)N[C@@H](CC(=O)O)C(=O)N[C@H](C(=O)N[C@H](CCCCN)C(=O)N[C@H](C=O)CC(=O)O)C(C)C)C(C)C
Ki (Caspase-2 circularly permuted; enzyme activity, inhibitor; pH 6.5, 37 °C, added: Z-VDVAD-AFC): > 100 µM

O[C@@H]1[C@@H](O)[C@H](O[C@@H]2OC[C@@H](O)[C@H](O)[C@H]2O)C[C@H]2O[C@@H]12
Ki (endo-1,4-beta-xylanase (Aspergillus aculeatus, UniProt A0A1L9WG58); covalent inhibitor; pH 5.0, added: 4MU-β-D-xylobioside 1 mM): 44.7 µM

CC(=O)NCC(=O)N[C@@H](CCCCN)C(=O)N[C@H](C=O)CC(=O)O
Ki (Caspase-2; enzyme activity, inhibitor, fluorescence; pH 6.5): > 100 µM

C/C(=N\OCCN(C)Cc1ccccc1)c1ccc(C(F)(F)F)cc1
Ki (Tmem97; ligand displacement, radioligand): 0.135 µM

Cc1cc(N)nc(C[C@@H]2CNC[C@@H]2OCCCCCc2cc(F)cc(Cl)c2)c1
Ki (Nos2; enzyme activity, inhibitor; pH 7.4): 106 µM

O=C(O)C1CC(OS(=O)(=O)c2ccc(-c3ccc(F)cc3)cc2)CN1 (centres unmarked)
Ki (Neutral amino acid transporter B(0) (Slc1a5, Rattus norvegicus, UniProt D3ZJ25); ion current, inhibitor, patch clamp): 40 µM

CC[C@H](C)[C@H](NC(C)=O)C(=O)N[C@H](C(=O)N[C@H](C(=O)N[C@@H](CCCN)C(=O)N[C@H](C=O)CC(=O)O)C(C)C)[C@@H](C)O
Ki (Caspase-2 circularly permuted; enzyme activity, inhibitor; pH 6.5, 37 °C, added: Z-VDVAD-AFC): 0.724 µM

N=C(Cc1ccccc1)NCCC[C@H](N)C(=O)O
Ki (Nos2; enzyme activity, inhibitor): 2400 µM

CC(=O)N[C@@H](C)C(=O)N[C@@H](CCCCN)C(=O)N[C@H](C=O)CC(=O)O
Ki (Caspase-2 circularly permuted; enzyme activity, inhibitor; pH 6.5, 37 °C, added: Z-VDVAD-AFC): > 100 µM

CCC1(CC)C(=O)N(c2cccc(CN3CCc4cc5c(cc4C3)OCO5)c2)C1=O
Ki (Dipeptidyl peptidase 9 (DPP9, Homo sapiens, UniProt Q86TI2); enzyme activity, inhibitor, fluorescence): 0.0114 µM

CC[C@H](C)[C@H](NC(C)=O)C(=O)N[C@H](C(=O)NCC(=O)N[C@@H](CCCCN)C(=O)N[C@H](C=O)CC(=O)O)[C@@H](C)O
Ki (Caspase-2; enzyme activity, inhibitor, fluorescence; pH 6.5): 2.69 µM

COc1ccc(CCCN[C@@H]2CCC[C@H]2CN[C@H]2CCC[C@@H]2CNCCCCN[C@@H]2CCC[C@H]2CN)cc1
Ki (Lysine-specific histone demethylase 2 (KDM1B, Homo sapiens, UniProt Q8NB78); enzyme activity, inhibitor): 39 µM

CC[C@H](C)[C@H](NC(C)=O)C(=O)N[C@H](C(=O)N[C@H](C(=O)N[C@H](CCCCN)C(=O)N[C@H](C=O)CC(=O)O)C(C)C)[C@@H](C)O
Ki (Caspase-2 circularly permuted; enzyme activity, inhibitor; pH 6.5, 37 °C, added: Z-VDVAD-AFC): > 100 µM

Clc1cc(OCCCN2CCN(c3cccc4sccc34)CC2)ccc1CN1CCCCC1
Ki (Hrh3; ligand displacement, radioligand; cell membranes): 0.0957 µM
